Assay results gathered from unrelated publications.
Parts stem from different laboratories: compare values within a part only.

Set 1
Target: Interferon regulatory factor 5, full length, phosphomimetic (IRF5, Homo sapiens, UniProt Q13568-2, residues 1-514, S451D/S453D/S456D/S462D)
Technique: protein-binding microarray
Molecule type: double-stranded DNA, one strand shown
Sample: in vitro
Tested at: 940 nM top
Notes: 60-bp whole probe
With: salmon DNA 0.4 mg/ml
Reference: random background probes
Reading: higher = stronger binding
Constant ends, left off below: GCCTAGCAC … GTCTTGATTCGCTTGACGCTGCTG
`TTAGGTTTCGTTTCCGGTTAGTGCTAG` — result for “fitted relative affinity”: 10 z-score.
For `GACGATATCGTGACTGGAGACGTGCTA`, “fitted relative affinity” read -0.642 z-score.
For `TTAGCTTTCGACACTGGGTTAGTGCTA`, “fitted relative affinity” read 2.66 z-score.
Under “fitted relative affinity”, `GACGAACTGGGTTTCGAGACGTGCTAG` is recorded as 2.49 z-score.
`GTAGATTTCAGTTTCGATTAGTGCTAG` — result for “fitted relative affinity”: 9.55 z-score.
Under “fitted relative affinity”, `GACGATATCGGGTTTCGAGGCGTGCTA` is recorded as 1.53 z-score.
`TTAGGTTTCTGGTATCGGTTAGTGCTA`: “fitted relative affinity” 7.28 z-score.
For `TAATGCTTCTGTATTCATGAGTGCTAG`, “fitted relative affinity” read 0.293 z-score.

Set 2
Target: Replicase polyprotein 1ab, main protease (rep, Severe acute respiratory syndrome coronavirus 2, UniProt P0DTD1)
Effect on: enzyme activity
Action: inhibitor
Tested at: 20 µM
Notes: hit confirmation
The inhibition of `CCCCC/C=C/C/C=C/C/C=C/C/C=C/CCCC(=O)O` is reported as 56.3%.
`NC[C@@H]1O[C@H](C23CC4CC(CC(C4)C2)C3)Cc2c1ccc(O)c2O` gave an inhibition of 96.1%.
With `NC(Cc1cc(O)c(O)cc1O)C(=O)O` (stereo not shown) the inhibition was 83.9%.
`CC1(C)C(/C=C/C=C/C=C/C=C2/N(CCCCS(=O)(=O)O)c3ccc4ccccc4c3C2(C)C)=[N+](CCCCS(=O)(=O)[O-])c2ccc3ccccc3c21` has an inhibition of 60%.

Set 3
Target: Sal-like protein 4, full length isoform B (SALL4, Homo sapiens, UniProt Q9UJQ4-2, residues 1-616)
Technique: universal PBM
Molecule type: double-stranded DNA, one strand shown
Sample: in vitro
Tested at: not given
Notes: 8-mer, flanks averaged, mean of replicates
Reading: higher = stronger binding
Construct (chain): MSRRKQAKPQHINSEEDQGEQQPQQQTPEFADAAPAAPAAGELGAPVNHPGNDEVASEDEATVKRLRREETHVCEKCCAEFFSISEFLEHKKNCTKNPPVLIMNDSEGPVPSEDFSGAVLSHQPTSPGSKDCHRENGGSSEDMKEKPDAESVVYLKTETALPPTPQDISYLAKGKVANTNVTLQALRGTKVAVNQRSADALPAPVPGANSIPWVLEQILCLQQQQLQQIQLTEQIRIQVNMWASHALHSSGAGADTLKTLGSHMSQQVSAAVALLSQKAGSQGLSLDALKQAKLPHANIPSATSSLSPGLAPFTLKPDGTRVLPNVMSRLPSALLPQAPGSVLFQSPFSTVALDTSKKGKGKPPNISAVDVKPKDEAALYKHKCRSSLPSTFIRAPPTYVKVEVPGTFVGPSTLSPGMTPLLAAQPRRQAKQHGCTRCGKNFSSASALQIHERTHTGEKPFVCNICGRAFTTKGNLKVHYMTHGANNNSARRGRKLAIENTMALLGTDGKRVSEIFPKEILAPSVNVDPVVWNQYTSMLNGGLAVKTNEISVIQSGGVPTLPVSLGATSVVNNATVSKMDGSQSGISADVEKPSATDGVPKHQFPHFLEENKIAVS
`CATCGGGA` gave an E-score of -0.114.
With `CCATTAAG` the E-score was 0.0822.
The E-score of `CGTGCTTC` is reported as -0.289.
The E-score of `AGTGGTAT` is reported as 0.0935.
`AAGGTCCC` has an E-score of -0.19.
The E-score of `CACGCGCA` is reported as -0.195.
The E-score of `GAGGATTA` is reported as 0.109.
For `GAGACTCA`, the E-score was -0.0756.

Set 4
Target: Replicase polyprotein 1ab, polymerase (rep, Severe acute respiratory syndrome coronavirus 2, UniProt P0DTD1)
Effect on: enzyme activity
Action: inhibitor
Tested at: 20 µM
The inhibition of `CNc1cc(OC)c(C(=O)N[C@@H]2CCN(Cc3ccccc3)[C@@H]2C)cc1Cl` (racemic) is reported as 2.05%.
`CCCc1c(OCCCCc2nnn[nH]2)ccc(C(C)=O)c1O` gave an inhibition of -4.11%.
`COc1cc2c(N3CCN(C(=O)Nc4ccc(OC(C)C)cc4)CC3)ncnc2cc1OCCCN1CCCCC1` has an inhibition of 3.08%.
The inhibition of `CC(C)[C@H](N)C(=O)OCC(CO)OCn1cnc2c(=O)nc(N)[nH]c21` (stereo partly shown) is reported as -4.52%.
`O[C@H]1CC[C@H](Nc2nc(-c3ccccc3)nc3[nH]ccc23)CC1` gave an inhibition of -2.72%.
For `Cc1ccc(C23CNCC2C3)cc1` (stereo not shown), the inhibition was -0.33%.
For `Cc1c(C)c(NCC(=O)N(C)C2CCN(Cc3ccc(C(N)=O)cc3)CC2)c(C)c(C)c1N`, the inhibition was 3.2%.
`O=C(NCCO[N+](=O)[O-])c1cccnc1` has an inhibition of -0.56%.
`Cc1cc(Nc2cc(CN3CCOCC3)c3nc(C)c(Cc4ccc(Cl)cc4F)n3n2)n[nH]1` has an inhibition of -4.79%.
The inhibition of `CC(C)(C)c1ccc(-c2nc3ccccc3[nH]2)cc1` is reported as 3.61%.
`CC1=C(/C=C/C(C)=C/C=C/C(C)=C/C(=O)Nc2ccc(O)cc2)C(C)(C)CCC1` has an inhibition of -5.55%.
The inhibition of `C[C@H](Cc1ccc(OCC(=O)O)cc1)NC[C@H](O)c1cccc(Cl)c1` is reported as 1.2%.
`Nc1nc(=O)c2c([nH]1)NCC(CNc1ccc(C(=O)N[C@@H](CCC(=O)O)C(=O)O)cc1)N2C=O` (stereo partly shown) gave an inhibition of 26.7%.
`CC(=O)N(OCc1ccccc1)[C@@H]1c2cc(C#N)ccc2OC(C)(C)[C@H]1O` gave an inhibition of -0.47%.
The inhibition of `Cc1nn(C)c2c1C(c1cccc(Cl)c1)=NCCN2` is reported as 2.1%.
`CCOC(=O)[C@H](CCc1ccccc1)N[C@@H](C)C(=O)N1CCC[C@H]1C(=O)O` gave an inhibition of 26.8%.
`Cc1[nH]c(/C=C2\C(=O)Nc3ccccc32)c(C)c1CCC(=O)O` gave an inhibition of 7.94%.
With `CC1=NN=C(c2ccc(N)cc2)c2cc3c(cc2C1)OCO3` the inhibition was 3.87%.
For `CCN1C(=O)CNc2ncc(-c3ccc(-c4nc[nH]n4)nc3C)nc21`, the inhibition was 1.51%.
The inhibition of `CC(C)(C(=O)NCC(F)(F)C(F)(F)F)C(=O)N[C@@H]1C(=O)Nc2ccccc2-c2ccccc21` is reported as 2.52%.
With `CC(=O)N[C@@H]1[C@@H](O)[C@H](O)[C@@H](CO)O[C@@H]1O` the inhibition was -1.81%.
`COc1ccc2c(c1)N(C[C@H](C)CN(C)C)c1ccccc1S2` gave an inhibition of -1.09%.
For `COc1ccc(Cc2nccc3cc(OC)c(OC)cc23)cc1OC`, the inhibition was 24.5%.
For `C[C@H](N[C@@H](CCc1ccccc1)C(=O)O)C(=O)N1CCC[C@H]1C(=O)O`, the inhibition was -3.74%.
`Cc1cc(O)c(C(C)C)cc1Cl` gave an inhibition of 0.85%.

Set 5
Target: Fragile X messenger ribonucleoprotein 1, C-terminal low-complexity region (Fmr1, Mus musculus, UniProt P35922)
Technique: RNA Bind-n-Seq
Molecule type: RNA
Sample: in vitro
Tested at: 200 nM
Notes: whole 134-nt RNA, ends assumed
With: 150 mM LiCl
Reference: input library
Reading: higher = stronger binding
Library: 7-deaza-guanosine replaces G
`GGGAGUUCUACAGUCCGACGAUCGCAGGAAGUAAAAACAAAUGGAAAUGCUUCGGAUAGCGGCAGGGGUGGGGGUUGCUAAGGAAAGGGUGGGAUGGGAGUGGGUAAAGAGUUUGGAAUUCUCGGGUGUCAAGG` has a log2 enrichment of 1.46.
`GGGAGUUCUACAGUCCGACGAUCCAAGUCCUGUGCUACACAUCGUAUGUACCGAAUCGGGGAAAGGGAAAGGGAAAGGGAAAGUAUUAUGUUACGCCGUUCGGAUCUGCACUUUGGAAUUCUCGGGUGUCAAGG` has a log2 enrichment of -0.807.
With `GGGAGUUCUACAGUCCGACGAUCAAGUCCUGUGCUACACAUCGUAUGUACCGAAUCGGGCCCCGGCCCCGGGCCCCGGGGAAAGUAUUAUGUUACGCCGUUCGGAUCUGCACUUGGAAUUCUCGGGUGUCAAGG` the log2 enrichment was -2.75.
`GGGAGUUCUACAGUCCGACGAUCAGUCCUGUGCUACACAUCGUAUGUACCGAAUCAAACCCCCAAAUUUUUAAAUUUAAAAAAGUAUUAUGUUACGCCGUUCGGAUCUGCACUUGGAAUUCUCGGGUGUCAAGG` gave a log2 enrichment of 0.114.

Set 6
Cell line: HEK-293T
Effect on: pseudovirus infection
Technique: FDA-approved drug library screen
Organism: VSV pseudotyped with SARS-CoV-2 spike
Tested at: 10 µM
Time: 16 h
Reference: vehicle-treated
`Nc1nc(F)nc2c1ncn2[C@@H]1O[C@H](COP(=O)(O)O)[C@@H](O)[C@@H]1O` has a GFP-positive cells of 117%.
`CO[C@H]1/C=C/O[C@@]2(C)Oc3c(C)c(O)c4c(O)c(c5c(nc6cc(C)ccn65)c4c3C2=O)NC(=O)/C(C)=C\C=C\[C@H](C)[C@H](O)[C@@H](C)[C@@H](O)[C@@H](C)[C@H](OC(C)=O)[C@@H]1C` gave a GFP-positive cells of 91.4%.
With `CCN(CC)CCNC(=O)c1ccc(N)cc1` the GFP-positive cells was 104%.

Some of these lines once more (set 1):
For `TTAGCTTTCGACACTGGGTTAGTGCTA`, “fitted relative affinity” read 2.66 z-score.
Under “fitted relative affinity”, `GACGAACTGGGTTTCGAGACGTGCTAG` is recorded as 2.49 z-score.
`GTAGATTTCAGTTTCGATTAGTGCTAG` — result for “fitted relative affinity”: 9.55 z-score.
